Measured values of several laboratories.
Protocols differ between the studies behind these lines.
CSF1R: Macrophage colony-stimulating factor 1 receptor (CSF1R, Homo sapiens, UniProt P07333)
CSF1R autoinhibited: Macrophage colony-stimulating factor 1 receptor, autoinhibited (CSF1R, Homo sapiens, UniProt P07333)

CN1CCN(Cc2ccc(NC(=O)c3cccc(C#Cc4cnc(N)c5ncccc45)c3)cc2C(F)(F)F)CC1  remaining binding (CSF1R; cell-free assay, competition with immobilised ligand; 50 nM): 0.4%
CCN1CCN(Cc2ccc(NC(=O)c3ccc(C)c(NC(=O)c4cncc(-c5cccs5)c4)c3)cc2C(F)(F)F)CC1  remaining binding (CSF1R; binding, competition with immobilised ligand; 1 µM): 0.35%
C=CC(=O)N1CCc2ccc(-n3c(=O)ccc4cnc5ccc(-c6cnn(C)c6)cc5c43)cc21  remaining binding (CSF1R autoinhibited; KINOMEscan; 1 µM; reference: DMSO control): 85%
Cc1ccc(-c2c(/C=C(\C#N)C(=O)NC(C)C)n(CCCO)c3ncnc(N)c23)cc1  remaining binding (CSF1R; cell-free assay, competition with immobilised ligand; 1 µM): 99%
CNC1C[S+]2CC[S+]3CC[S+](C1)[Ru-4]321([N]=C=S)[n]2c3ccc(OC)cc3c3c4c(c5cc(F)c[n+]1c5c32)C(=O)NC4=O (centres unmarked)  remaining binding (CSF1R autoinhibited; KinomeScan; 0.1 µM; reference: untreated): 99%
CC(=O)N1c2ccc(-c3ccc(CNC(=O)c4cn5cc(-c6cnc(N)nc6)nc(N6CCOCC6)c5n4)cc3)cc2CC[C@@H]1C  remaining binding (CSF1R; KINOMEscan; 10 µM): 90%
C=CC(=O)N1CCCC(n2c(=O)c3ncccc3n(Cc3ccc(Oc4ccccc4)cc3)c2=O)C1 (centres unmarked)  remaining binding (CSF1R autoinhibited; cell-free assay, competition with immobilised ligand; 1 µM): 91%
CNC(=O)C1CCN(c2cc(C)c(F)cc2NC(=O)c2ccc(-c3cc(O)ccc3C)c(C)c2)CC1  remaining binding (CSF1R; binding, competition with immobilised ligand; 1 µM): 65%
CCN1CCN(Cc2ccc(C(=O)Nc3ccc(C)c(NCc4cnc5[nH]ccc5c4OC)c3)cc2C(F)(F)F)CC1  remaining binding (CSF1R; binding, competition with immobilised ligand; 1 µM): 0.55%
CC(C)=CC1OC(C)(C)C2C=C3C(=O)C(Cl)=CC(O)C3C3C(O)C4OC4C(=O)C132 (centres unmarked)  remaining binding (CSF1R autoinhibited; cell-free assay, competition with immobilised ligand; 10 µM): 95%
COc1c(Cl)cccc1Nc1c(-c2ccncc2C#C[C@@]2(C)CCCN2C(=O)/C=C/CN(C)C)[nH]c2c1C(=O)NCC2  remaining binding (CSF1R; cell-free assay, competition with immobilised ligand; 3 µM): 97%
COc1cc(Nc2nccc(-c3cnn4nc(OC)ccc34)n2)cc(C(F)(F)F)c1  remaining binding (CSF1R; binding, competition with immobilised ligand; 1 µM): 91%
Cc1cnc2nc1Nc1cccc(c1)COC/C=C/COCc1cc(ccc1OCCN1CCOCC1)N2  remaining binding (CSF1R autoinhibited; binding; 0.1 µM): 46%
Nc1ncc2c(n1)-c1c([nH]c3ccc(C4=CCOCC4)cc13)CCC2  remaining binding (CSF1R; binding, competition with immobilised ligand; 1 µM): 100%

Some of these lines once more:
COc1cc(Nc2nccc(-c3cnn4nc(OC)ccc34)n2)cc(C(F)(F)F)c1  remaining binding (CSF1R; binding, competition with immobilised ligand; 1 µM): 91%
